Measured values gathered from unrelated publications.
Every numbered part comes from another study and shows a few of its results, in no order. Substitutions count along the parent as printed.

Block 1 — target: CCNB1, cyclin fold, Cln2 fusion (human); method: yeast growth competition, sequencing; matrix: yeast; notes: weak parent motif; baseline: not given; direction: higher = stronger binding
Parent: SAMHD1 docking peptide (human); ASKSRVQLFKDDP
| Change | normalised enrichment score |
| --- | --- |
| ASKSRVQLFQDDP [K10Q] | 0.0585 |
| ASKSRVSLFKDDP [Q7S] | -0.000278 |
| AEKSRVQLFKDDP [S2E] | 0.281 |
| ASKSRVQLFTDDP [K10T] | 0.339 |
| ASKSRVQLFKDEP [D12E] | 0.484 |
| ASKSRVQLFSDDP [K10S] | 0.464 |
| ASKSRMQLFKDDP [V6M] | 0.228 |
| ASRSRVQLFKDDP [K3R] | 0.158 |
| ASKSRVQLFKDQP [D12Q] | 0.0131 |
| ASKSRLQLFKDDP [V6L] | 0.355 |
| ASKSRVQLFDDDP [K10D] | 0.266 |
| ASKSRVQLGKDDP [F9G] | -0.0544 |
| ASKSRDQLFKDDP [V6D] | -0.186 |
| AKKSRVQLFKDDP [S2K] | 0.055 |
| AIKSRVQLFKDDP [S2I] | 0.6 |
| ASKWRVQLFKDDP [S4W] | 0.74 |

Block 2 — method: DHFR PCA, deep sequencing; matrix: yeast; added: (+)-ABA 710 µM; baseline: wild-type fitted maximum; direction: higher = stronger binding
Target: ABI1, truncated, D143A, DHFR fusion (Arabidopsis thaliana)
Notes: methotrexate growth selection, single substitutions
Parent: PYL1, truncated, DHFR fusion (Arabidopsis thaliana); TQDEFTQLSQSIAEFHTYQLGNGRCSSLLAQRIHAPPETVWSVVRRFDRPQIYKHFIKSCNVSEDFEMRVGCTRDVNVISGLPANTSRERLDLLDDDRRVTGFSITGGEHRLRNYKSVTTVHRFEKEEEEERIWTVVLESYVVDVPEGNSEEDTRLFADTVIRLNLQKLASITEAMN; partner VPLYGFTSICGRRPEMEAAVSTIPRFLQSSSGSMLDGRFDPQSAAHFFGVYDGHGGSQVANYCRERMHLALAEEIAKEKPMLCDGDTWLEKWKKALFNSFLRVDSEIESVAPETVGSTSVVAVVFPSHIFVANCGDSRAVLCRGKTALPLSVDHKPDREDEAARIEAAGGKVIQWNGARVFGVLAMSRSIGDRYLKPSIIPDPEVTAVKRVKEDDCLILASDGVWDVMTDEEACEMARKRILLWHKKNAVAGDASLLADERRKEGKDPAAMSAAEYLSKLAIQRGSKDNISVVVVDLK
| Change | relative binding score |
| --- | --- |
| E109F | 89.3% |
| P37S | 89.4% |
| Q19D | 110% |
| T120W | 19.5% |
| F56W | 97.6% |
| F124I | 107% |
| P50I | 40.4% |
| I12V | 94.1% |
| A13Y | 95.2% |
| V44E | 1.35% |
| L20H | 111% |
| Q51C | 117% |
| S117D | -0.356% |
| P50Q | 24.5% |
| E127H | 104% |
| N77K | 104% |

Block 3 — method: universal PBM; form: double-stranded DNA, one strand shown; matrix: in vitro; concentration: 600 nM; direction: higher = stronger binding
Target: Sal-like protein 4, full length isoform A (SALL4, Homo sapiens, UniProt Q9UJQ4, residues 1-1053)
UniProt Q9UJQ4, sequence (whole entry, looked up): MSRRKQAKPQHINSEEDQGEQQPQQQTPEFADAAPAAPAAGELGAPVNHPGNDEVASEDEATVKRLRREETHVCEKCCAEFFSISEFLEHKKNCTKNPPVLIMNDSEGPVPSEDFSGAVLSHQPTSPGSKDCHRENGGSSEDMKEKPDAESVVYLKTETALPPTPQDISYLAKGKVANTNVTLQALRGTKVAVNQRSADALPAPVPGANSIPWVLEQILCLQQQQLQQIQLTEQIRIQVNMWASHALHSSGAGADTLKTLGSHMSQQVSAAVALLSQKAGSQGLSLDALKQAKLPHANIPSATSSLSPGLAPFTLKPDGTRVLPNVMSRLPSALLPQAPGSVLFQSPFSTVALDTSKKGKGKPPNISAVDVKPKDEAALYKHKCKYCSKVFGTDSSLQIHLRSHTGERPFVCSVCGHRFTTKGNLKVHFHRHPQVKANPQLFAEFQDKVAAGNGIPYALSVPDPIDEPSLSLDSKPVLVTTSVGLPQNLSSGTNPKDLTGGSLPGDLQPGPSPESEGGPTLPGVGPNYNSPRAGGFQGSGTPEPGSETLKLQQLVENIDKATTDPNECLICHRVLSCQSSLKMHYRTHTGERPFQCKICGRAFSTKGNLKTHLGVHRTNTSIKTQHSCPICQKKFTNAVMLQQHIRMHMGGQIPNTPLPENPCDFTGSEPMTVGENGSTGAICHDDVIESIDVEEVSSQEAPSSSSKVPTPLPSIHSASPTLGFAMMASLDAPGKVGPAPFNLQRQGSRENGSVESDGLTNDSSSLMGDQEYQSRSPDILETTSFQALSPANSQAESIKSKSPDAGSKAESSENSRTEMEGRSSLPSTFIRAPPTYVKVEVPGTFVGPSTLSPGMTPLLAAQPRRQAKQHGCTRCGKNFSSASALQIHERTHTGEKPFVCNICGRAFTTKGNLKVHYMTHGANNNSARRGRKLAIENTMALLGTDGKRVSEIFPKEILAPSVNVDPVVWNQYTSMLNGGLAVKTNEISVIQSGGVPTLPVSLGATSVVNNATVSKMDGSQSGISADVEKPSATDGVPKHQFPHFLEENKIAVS
Notes: 8-mer, flanks averaged, mean of replicates
| Sequence | E-score |
| --- | --- |
| TCTGCGCA | -0.22 |
| CTGTGATC | -0.0791 |
| AGAACTTA | 0.0856 |
| CTCCAGGA | -0.194 |
| AATTCTCT | 0.00736 |
| AAAATAGC | 0.0614 |
| GGACTAAA | -0.049 |
| ACGTGAGG | -0.145 |
| AGCTGCAA | -0.0424 |
| CTCATCTC | 0.000625 |
| GAGATCCA | -0.159 |
| AATCGCGT | -0.1 |
| CACGGACG | -0.16 |
| AATCATCG | 0.0784 |
| GTCTGCCA | -0.142 |
| GCAGAACA | -0.0347 |
| TAGTGGGA | -0.108 |
| CAGTTTAC | 0.0347 |
| GTGCCGAA | -0.158 |
| TCGTCAGA | -0.0819 |
| CTGGGTAA | 0.0492 |
| GGCGGTAA | -0.13 |
| CTTTTTTC | 0.073 |
| ATGTGCTC | 0.0624 |
| ACCGCCCG | -0.31 |

Block 4 — method: aptamer microarray, sandwich; form: DNA with 2'F-ANA; matrix: in vitro; concentration: 200 nM; added: Cy3 exosite-II aptamer, 400 nM; direction: higher = stronger binding; sequence: GGTTGGTGTGGTTGG
Target: Prothrombin, mature alpha-thrombin (F2, Homo sapiens, UniProt P00734)
Notes: whole 15-mer aptamer, many near background
| Modification | mean fluorescence intensity |
| --- | --- |
| 2'F-ANA at 2 4 6 8 9 10 11 13 15 | 60.9 a.u. |
| 2'F-ANA at 1 2 7 8 13 15 | 200 a.u. |
| 2'F-ANA at 2 3 5 6 10 11 14 15 | 49.7 a.u. |
| 2'F-ANA at 1 4 5 6 8 11 12 15 | 86.7 a.u. |
| 2'F-ANA at 3 6 8 9 10 13 14 | 359 a.u. |
| 2'F-ANA at 1 4 5 6 7 8 11 12 14 15 | 50.5 a.u. |
| 2'F-ANA at 4 9 11 12 13 15 | 300 a.u. |
| 2'F-ANA at 3 5 7 8 13 14 | 62.5 a.u. |
| 2'F-ANA at 3 6 7 8 10 13 15 | 506 a.u. |
| 2'F-ANA at 1 7 10 12 14 15 | 54.3 a.u. |
| 2'F-ANA at 2 3 6 8 10 12 13 15 | 357 a.u. |
| 2'F-ANA at 1 4 7 9 | 127 a.u. |
| 2'F-ANA at 1 2 6 11 12 14 15 | 67.3 a.u. |
| 2'F-ANA at 1 2 5 6 7 8 9 12 14 | 53.6 a.u. |
| 2'F-ANA at 2 4 11 | 299 a.u. |
| 2'F-ANA at 1 2 3 4 5 6 7 8 10 12 13 14 15 | 82.4 a.u. |
| 2'F-ANA at 2 4 5 6 8 11 12 13 14 15 | 48.9 a.u. |
| 2'F-ANA at 1 3 4 10 11 13 14 | 51.8 a.u. |
| 2'F-ANA at 4 6 7 8 10 11 12 | 122 a.u. |
| 2'F-ANA at 1 3 4 7 9 11 12 14 | 77.9 a.u. |
| 2'F-ANA at 1 5 6 8 10 11 12 15 | 50 a.u. |
| 2'F-ANA at 2 5 7 8 9 10 11 13 | 48.7 a.u. |
| 2'F-ANA at 5 6 7 10 11 14 | 42.7 a.u. |
| 2'F-ANA at 2 3 4 6 7 8 10 11 | 257 a.u. |
| 2'F-ANA at 1 2 5 7 9 10 11 12 | 49.2 a.u. |

Block 5 — method: RNA Bind-n-Seq; form: RNA; matrix: in vitro; concentration: not given; notes: RNA with constant flanks, ends assumed; baseline: input RNA pool; direction: higher = stronger binding
Target: RING finger protein unkempt homolog, zinc fingers 1-6, GST-SBP tag (UNK, Homo sapiens, UniProt Q9C0B0, residues 30-357)
Shared flanks, not repeated: GGGAGUUCUACAGUCCGACGAUC … CAACAGAGGAUUGAGCAUCA
Construct (chain): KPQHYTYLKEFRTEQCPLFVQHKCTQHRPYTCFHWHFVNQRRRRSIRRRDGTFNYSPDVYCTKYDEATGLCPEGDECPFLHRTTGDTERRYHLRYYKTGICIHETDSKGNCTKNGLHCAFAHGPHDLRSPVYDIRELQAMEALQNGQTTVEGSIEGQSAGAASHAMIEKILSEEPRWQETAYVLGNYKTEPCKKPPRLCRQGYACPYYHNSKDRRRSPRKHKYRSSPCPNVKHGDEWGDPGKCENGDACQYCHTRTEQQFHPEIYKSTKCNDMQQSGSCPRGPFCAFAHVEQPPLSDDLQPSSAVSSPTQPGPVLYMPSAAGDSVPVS
| Sequence | bound/input enrichment |
| --- | --- |
| CCUUAAUUAGCAGGUACUGUGUAUUUCAUCAGGAAGUCUUUGUAGUUCUAGAUACUCAGCCCGUAUUUUGGAAUUUGUAUAAUGAGAAUGUUUAGAAGCCAUCUAUAUGGCUUUUUUAAA | 2.07 ratio |
| UUGGGCUUCUGGAGGGCCUCUCUCGCCUGCCCGACGUCCUGCAAAUGCAGUUCCGCCCGGAUUUGGUGUACUGAGCCUUCUCCAGGCAUCGUGGCAUUCCCGAGGUUGGAACCUAACAGC | 0.0437 ratio |
| CUGAUAGUCCUAGCAAUUGAUCACAAAAGGAGGCUCACAGCAUGUAAAUUCUCUGGUCUUUACCGCGUUCACCUGGAAUGGACGACCCUUUUUUUUUUCCUUUGCCUUCUACUUAUUUCU | 0.994 ratio |
| UCACCCCAGAGCAUUUUAGAUGAUGUUGCCAUGGUACUUGAUGAAGAAGCAGAAGUUUUUACCGUCAAAAUGUGGAGAUUAUUGAUAUAUGAAACAGAAGCCAAGAAAAUUGGUCUUGUG | 0.355 ratio |
| CUGUGAAAGUAUGGGAAGGUUCCCAUCCCCAUCCUUUAAGGUUCCCAAACCUGGAGUGCACCGGUACUAAACCAAGCAGUGCAACUUGUAAUUAAGAAGCUGCAGUGUUUACAUGUUUCU | 0.157 ratio |
| ACCAUGAAUGAUAUCGAUGCUUUUGAAUUUCAUGAAGCCUUCUCAGGCCAGAUUUCCGCUAACUUUAAAGCCAUGGAUUCUGAUUGGUUUGCACAAAACUACAUGGGUAGGAAAACCAAG | 0.109 ratio |
| GCACAUGGUUUGGGACUUGCACGUUCUGCCAUGGAGGAGUCUUCAGUGACAGUUGGCACAACCGACGUUUCUUAUCUGCCCAGUUCAUCGGAAUACAGCCUUGGCCGAUGUAAACACACC | 0.55 ratio |
| GUGUUCGAGGAGAUGAACGUGGAUCUGCAGGAGGAGCUGCCAUCCCUGUGGAACAGCCGUGCCGGUUUCUAUGUCAACACGUUCCAGAGCAUCGCGGGUCUGGAGGAAAACUUCCAUAAA | 0.156 ratio |
| UCUGCGCGUGCGCCGGUGGCGGGACUCUGGGGAAAAUGGCUGCGUCUUCGAGUGGGAACUUACCGAAAUGCUGGCAAUUUCAAGAAACCAAAAGUUGUUACAGGCUGGAGAGGAAAACCA | 0.137 ratio |
| GUUAGACGUGGCCCUGUAUUUGGAAGUCUCUGACGGGUUGACAGUAUUAACACUCAAUUGCCGUUUACAGUAUUUAUACAUGACAGCCAUACAUGACGCCAAGCCAUGGGUUCUCAGUUU | 0.137 ratio |
| AAGAUUCACCAAGAAACCUUUGGCAAGAGUGGAUGCCGUCGCAUCGUUCCUGGCCAGUUCUCCGCUGUGGAUCCCAAAGGGCGAGCCGUUAUGAUUAGUGCCAUUGAGAAACAGAAAUUG | 0.326 ratio |

Repeated from above (block 3):
| Sequence | E-score |
| --- | --- |
| AATCGCGT | -0.1 |
| CTCCAGGA | -0.194 |
| GTCTGCCA | -0.142 |
| CTTTTTTC | 0.073 |
| CACGGACG | -0.16 |
| ATGTGCTC | 0.0624 |
| GTGCCGAA | -0.158 |
| ACGTGAGG | -0.145 |
| ACCGCCCG | -0.31 |
| AATCATCG | 0.0784 |
| TAGTGGGA | -0.108 |
| CTCATCTC | 0.000625 |
